Assay results of several laboratories.
Numbered parts are unrelated; each lists some results of a single study.
UniProt P57059, sequence (whole entry, looked up): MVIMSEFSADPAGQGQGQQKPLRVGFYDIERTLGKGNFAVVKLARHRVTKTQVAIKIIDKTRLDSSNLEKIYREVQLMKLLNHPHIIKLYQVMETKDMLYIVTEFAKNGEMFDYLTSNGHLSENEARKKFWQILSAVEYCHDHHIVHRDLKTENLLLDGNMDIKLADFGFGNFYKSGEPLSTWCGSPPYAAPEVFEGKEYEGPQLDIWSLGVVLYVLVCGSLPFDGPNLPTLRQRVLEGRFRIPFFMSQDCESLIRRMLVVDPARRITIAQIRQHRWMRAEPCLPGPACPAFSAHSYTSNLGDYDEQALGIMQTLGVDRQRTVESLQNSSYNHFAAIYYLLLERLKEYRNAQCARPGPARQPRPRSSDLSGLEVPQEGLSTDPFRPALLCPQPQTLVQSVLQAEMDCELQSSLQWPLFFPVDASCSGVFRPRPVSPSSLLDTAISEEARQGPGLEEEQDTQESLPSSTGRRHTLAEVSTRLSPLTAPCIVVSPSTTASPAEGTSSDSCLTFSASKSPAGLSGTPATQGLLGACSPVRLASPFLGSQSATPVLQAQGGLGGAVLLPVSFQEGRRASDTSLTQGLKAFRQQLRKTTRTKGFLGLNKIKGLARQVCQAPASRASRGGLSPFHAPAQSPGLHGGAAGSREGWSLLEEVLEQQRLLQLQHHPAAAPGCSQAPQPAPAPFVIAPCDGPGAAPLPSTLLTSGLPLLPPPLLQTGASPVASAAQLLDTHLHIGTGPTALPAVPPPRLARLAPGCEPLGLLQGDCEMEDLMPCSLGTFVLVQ
UniProt P42679, sequence (whole entry, looked up): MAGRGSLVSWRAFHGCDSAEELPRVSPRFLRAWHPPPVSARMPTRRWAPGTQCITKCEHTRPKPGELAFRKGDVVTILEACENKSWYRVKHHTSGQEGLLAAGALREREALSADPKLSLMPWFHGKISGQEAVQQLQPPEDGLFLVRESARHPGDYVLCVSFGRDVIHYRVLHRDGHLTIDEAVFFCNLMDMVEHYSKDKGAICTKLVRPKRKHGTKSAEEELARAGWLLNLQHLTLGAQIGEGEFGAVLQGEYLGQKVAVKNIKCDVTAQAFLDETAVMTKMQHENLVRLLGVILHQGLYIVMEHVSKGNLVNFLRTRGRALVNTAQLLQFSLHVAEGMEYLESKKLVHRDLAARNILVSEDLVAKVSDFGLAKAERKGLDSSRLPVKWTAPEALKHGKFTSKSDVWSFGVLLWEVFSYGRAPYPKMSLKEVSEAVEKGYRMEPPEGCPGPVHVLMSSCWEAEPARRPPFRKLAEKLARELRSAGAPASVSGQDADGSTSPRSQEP
UniProt P10721, sequence (whole entry, unmodified, looked up): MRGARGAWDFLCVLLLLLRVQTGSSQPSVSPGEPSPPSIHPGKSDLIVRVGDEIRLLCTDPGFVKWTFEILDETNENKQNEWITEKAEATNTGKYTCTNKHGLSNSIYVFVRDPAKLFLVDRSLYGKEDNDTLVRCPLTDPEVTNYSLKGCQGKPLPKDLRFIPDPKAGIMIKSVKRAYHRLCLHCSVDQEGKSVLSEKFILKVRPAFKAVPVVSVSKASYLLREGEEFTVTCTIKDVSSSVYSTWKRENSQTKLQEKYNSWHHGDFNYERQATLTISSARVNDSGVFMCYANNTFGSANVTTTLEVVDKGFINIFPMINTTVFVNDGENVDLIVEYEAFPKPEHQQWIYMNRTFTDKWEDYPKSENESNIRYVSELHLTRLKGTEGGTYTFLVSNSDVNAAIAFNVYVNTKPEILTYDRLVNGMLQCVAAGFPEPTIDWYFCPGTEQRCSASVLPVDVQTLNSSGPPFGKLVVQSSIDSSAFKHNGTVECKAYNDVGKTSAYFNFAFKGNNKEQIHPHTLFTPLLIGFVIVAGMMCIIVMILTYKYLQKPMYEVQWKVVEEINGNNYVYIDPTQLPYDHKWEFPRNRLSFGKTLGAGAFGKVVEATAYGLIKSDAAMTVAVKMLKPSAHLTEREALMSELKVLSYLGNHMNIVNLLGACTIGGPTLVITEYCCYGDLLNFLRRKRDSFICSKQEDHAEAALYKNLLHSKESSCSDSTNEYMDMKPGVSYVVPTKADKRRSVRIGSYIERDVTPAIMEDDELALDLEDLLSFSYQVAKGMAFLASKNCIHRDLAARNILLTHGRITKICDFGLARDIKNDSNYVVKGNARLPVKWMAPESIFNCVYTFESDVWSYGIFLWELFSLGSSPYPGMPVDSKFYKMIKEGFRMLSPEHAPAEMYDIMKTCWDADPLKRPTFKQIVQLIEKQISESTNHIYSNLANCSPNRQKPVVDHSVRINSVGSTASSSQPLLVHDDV
UniProt O00238, sequence (whole entry, looked up): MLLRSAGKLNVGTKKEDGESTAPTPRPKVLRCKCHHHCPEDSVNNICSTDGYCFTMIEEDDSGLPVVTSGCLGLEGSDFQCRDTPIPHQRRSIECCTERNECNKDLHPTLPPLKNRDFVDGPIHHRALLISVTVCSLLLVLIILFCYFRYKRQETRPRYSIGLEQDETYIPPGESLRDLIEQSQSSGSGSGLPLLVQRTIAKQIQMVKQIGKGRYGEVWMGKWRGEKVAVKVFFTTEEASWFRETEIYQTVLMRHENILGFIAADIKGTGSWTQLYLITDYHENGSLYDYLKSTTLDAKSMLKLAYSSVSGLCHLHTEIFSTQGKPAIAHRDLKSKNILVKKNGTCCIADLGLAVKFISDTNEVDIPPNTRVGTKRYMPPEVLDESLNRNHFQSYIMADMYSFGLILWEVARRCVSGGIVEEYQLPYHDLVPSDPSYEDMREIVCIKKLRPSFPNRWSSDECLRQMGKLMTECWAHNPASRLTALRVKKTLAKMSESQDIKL
UniProt Q8IW41, sequence (whole entry, looked up): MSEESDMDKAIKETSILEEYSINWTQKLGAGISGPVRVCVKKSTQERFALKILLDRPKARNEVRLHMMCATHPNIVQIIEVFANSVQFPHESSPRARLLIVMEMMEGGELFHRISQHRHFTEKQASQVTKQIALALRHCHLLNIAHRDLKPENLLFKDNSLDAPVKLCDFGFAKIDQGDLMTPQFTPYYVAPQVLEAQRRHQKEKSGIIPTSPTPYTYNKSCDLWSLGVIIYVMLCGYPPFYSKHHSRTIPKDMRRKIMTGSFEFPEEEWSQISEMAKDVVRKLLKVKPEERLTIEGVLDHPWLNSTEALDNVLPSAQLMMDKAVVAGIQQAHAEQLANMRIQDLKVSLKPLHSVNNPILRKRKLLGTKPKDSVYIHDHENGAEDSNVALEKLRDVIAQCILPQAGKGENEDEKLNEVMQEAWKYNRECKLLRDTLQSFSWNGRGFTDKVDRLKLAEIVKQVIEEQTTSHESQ
UniProt P36896, sequence (whole entry, looked up): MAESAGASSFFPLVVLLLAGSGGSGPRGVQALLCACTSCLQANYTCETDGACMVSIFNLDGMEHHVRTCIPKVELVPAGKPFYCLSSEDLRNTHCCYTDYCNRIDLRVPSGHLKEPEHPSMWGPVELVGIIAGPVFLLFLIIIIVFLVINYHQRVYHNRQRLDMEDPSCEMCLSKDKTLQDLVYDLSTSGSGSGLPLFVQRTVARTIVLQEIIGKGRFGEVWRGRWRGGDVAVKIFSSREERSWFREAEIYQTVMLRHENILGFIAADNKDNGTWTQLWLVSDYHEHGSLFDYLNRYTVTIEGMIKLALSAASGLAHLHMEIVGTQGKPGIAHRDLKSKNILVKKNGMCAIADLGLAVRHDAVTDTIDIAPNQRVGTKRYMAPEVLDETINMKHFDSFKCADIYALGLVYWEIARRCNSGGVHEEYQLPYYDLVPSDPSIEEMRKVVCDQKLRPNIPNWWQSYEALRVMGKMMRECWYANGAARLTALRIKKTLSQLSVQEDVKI
UniProt O15530, sequence (whole entry, looked up): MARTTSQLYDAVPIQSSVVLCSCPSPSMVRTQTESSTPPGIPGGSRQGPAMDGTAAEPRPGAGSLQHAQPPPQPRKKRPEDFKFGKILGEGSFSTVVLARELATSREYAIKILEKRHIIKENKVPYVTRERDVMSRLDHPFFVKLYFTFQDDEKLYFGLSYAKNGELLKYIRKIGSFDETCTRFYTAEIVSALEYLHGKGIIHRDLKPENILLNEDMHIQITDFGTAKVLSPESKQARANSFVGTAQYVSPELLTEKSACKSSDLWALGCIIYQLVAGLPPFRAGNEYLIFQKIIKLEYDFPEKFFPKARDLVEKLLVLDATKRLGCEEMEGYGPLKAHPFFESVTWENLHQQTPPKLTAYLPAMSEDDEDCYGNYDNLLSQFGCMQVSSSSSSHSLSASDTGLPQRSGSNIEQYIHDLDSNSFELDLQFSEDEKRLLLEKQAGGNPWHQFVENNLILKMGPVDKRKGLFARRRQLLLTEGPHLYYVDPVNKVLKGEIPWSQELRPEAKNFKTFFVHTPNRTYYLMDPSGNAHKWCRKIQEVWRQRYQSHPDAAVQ

Set 1
Target: Inhibitor of nuclear factor kappa-B kinase subunit alpha (CHUK, Homo sapiens, UniProt O15111)
UniProt O15111, sequence (whole entry, looked up): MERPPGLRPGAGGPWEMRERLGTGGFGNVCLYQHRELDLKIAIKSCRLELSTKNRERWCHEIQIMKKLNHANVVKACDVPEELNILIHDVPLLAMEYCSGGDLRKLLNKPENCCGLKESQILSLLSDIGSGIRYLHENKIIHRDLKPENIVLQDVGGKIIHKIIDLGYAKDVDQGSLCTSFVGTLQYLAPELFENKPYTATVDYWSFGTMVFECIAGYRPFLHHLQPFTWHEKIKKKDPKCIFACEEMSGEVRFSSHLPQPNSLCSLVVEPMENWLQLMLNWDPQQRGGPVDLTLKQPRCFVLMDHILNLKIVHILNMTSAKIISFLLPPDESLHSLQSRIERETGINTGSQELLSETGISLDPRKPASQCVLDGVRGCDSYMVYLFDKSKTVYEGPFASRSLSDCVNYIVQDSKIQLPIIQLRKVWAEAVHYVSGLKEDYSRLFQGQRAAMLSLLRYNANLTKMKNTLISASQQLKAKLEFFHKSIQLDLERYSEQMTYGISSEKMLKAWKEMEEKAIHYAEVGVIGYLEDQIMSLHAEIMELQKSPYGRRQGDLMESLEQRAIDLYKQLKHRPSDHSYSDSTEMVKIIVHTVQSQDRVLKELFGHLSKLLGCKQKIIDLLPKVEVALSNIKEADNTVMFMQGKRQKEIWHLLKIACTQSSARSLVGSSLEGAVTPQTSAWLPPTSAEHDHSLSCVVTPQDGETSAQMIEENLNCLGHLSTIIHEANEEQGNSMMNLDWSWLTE
Read-out: enzyme activity
Mode: inhibitor
Tested at: 0.5 µM
Baseline: control
Measurement: remaining activity
O=c1c(-c2ccc(F)cc2)c(-c2ccncc2)[nH]n1-c1ccc(Cl)cc1: 101%
NC(=O)c1ccc(-c2nc(-c3ccc4c(c3)OCCO4)c(-c3ccccn3)[nH]2)cc1: 89.7%
O=Nc1c(-c2c(O)[nH]c3ccccc23)[nH]c2ccccc12: 97.6%
O=C(O)/C=C/c1cc(Br)c(Br)c(Br)c1Br: 89.5%
C[C@@H](N)[C@H]1CC[C@H](C(=O)Nc2ccncc2)CC1: 92.2%
FC(F)(F)c1ccc(/C=C/c2nc(COc3ccc(CCCCn4ccnn4)cc3)co2)cc1: 96.8%
N#C/C(=C(/N)SC1C=CC=CC1)c1cccc(C(O)c2ccncc2)c1 (stereo not shown): 105%
NC(=O)c1cccc(-c2cc(Nc3ccc(OC(F)(F)F)cc3)ncn2)c1: 95%
N#CC(c1ccnc(NCCc2cccnc2)n1)c1nc2ccccc2s1 (stereo not shown): 88.6%
O=C1NC(=O)/C(=C/c2ccc3c(c2)OC(F)(F)O3)S1: 88.4%
O=C1c2ccccc2-c2nc3nnnn3nc21: 72%
CC(C)N(CCC(=O)c1ccc2ccccc2c1)Cc1ccccc1: 96.4%
CCN(CC)CCCCN1c2ccccc2Oc2ccc(Cl)cc21: 98.8%
CC(C)(C)c1nc2c3cc[nH]c(=O)c3c3cc(F)ccc3c2[nH]1: 102%
CNc1cc2c(Nc3cccc(Br)c3)ncnc2cn1: 99%
CCCCc1c(-c2ccc(O)cc2)[nH]c2nccnc12: 77.6%
c1cc(-c2cnn3cc(-c4ccc(OCCN5CCCCC5)cc4)cnc23)ccn1: 104%
COc1cc2c(N3CCN(C(=O)Nc4ccc(OC(C)C)cc4)CC3)ncnc2cc1OCCCN1CCCCC1: 98.3%
O=C(c1ccccc1)c1ccc(N2CCOCC2)cc1O: 101%
Nc1nc(Nc2ccc(S(N)(=O)=O)cc2)nn1C(=S)Nc1c(F)cccc1F: 54.4%
COc1cc2c(Nc3ccc(Br)cc3F)ncnc2cc1OCC1CCN(C)CC1: 96.6%
Clc1ccc(Nc2nnc(Cc3ccncc3)c3ccccc23)cc1: 104%
CC(C)n1cnc2c(Nc3cccc(Cl)c3)nc(NCCO)nc21: 96.1%

Set 2
Structure (SMILES): C=CC(=O)N1CCC[C@@H](n2nc(-c3ccc(Oc4ccccc4)cc3)c3c(N)ncnc32)C1
Mode: inhibitor
Tested at: 1 µM
Measurement: inhibition
Macrophage colony-stimulating factor 1 receptor (CSF1R, Homo sapiens, UniProt P07333): 14%
Serine/threonine-protein kinase 26 (STK26, Homo sapiens, UniProt Q9P289): 19%
Megakaryocyte-associated tyrosine-protein kinase (MATK, Homo sapiens, UniProt P42679): 32%
MAP kinase-interacting serine/threonine-protein kinase 1 (MKNK1, Homo sapiens, UniProt Q9BUB5): 13%
Ribosomal protein S6 kinase alpha-4, C-terminal kinase domain (RPS6KA4, Homo sapiens, UniProt O75676): 1%
Tyrosine-protein kinase Blk (BLK, Homo sapiens, UniProt P51451); enzyme activity: 100%
Ribosomal protein S6 kinase alpha-5, N-terminal kinase domain (RPS6KA5, Homo sapiens, UniProt O75582): 4%
Activin receptor type-1B (ACVR1B, Homo sapiens, UniProt P36896); enzyme activity: 11%
MAP/microtubule affinity-regulating kinase 3 (MARK3, Homo sapiens, UniProt P27448); enzyme activity: 7%
Myosin-IIIb (MYO3B, Homo sapiens, UniProt Q8WXR4); enzyme activity: 28%
AP2-associated protein kinase 1 (AAK1, Homo sapiens, UniProt Q2M2I8); enzyme activity: 1%
Casein kinase I isoform gamma-3 (CSNK1G3, Homo sapiens, UniProt Q9Y6M4); enzyme activity: 2%
Activin receptor type-1 (ACVR1, Homo sapiens, UniProt Q04771); enzyme activity: 2%
Mast/stem cell growth factor receptor Kit (KIT, Homo sapiens, UniProt P10721): 46%

Set 3
Structure (SMILES): CCCOc1ccc([C@H]2[C@H](C(=O)O)[C@@H](c3ccc4c(c3)OCO4)CN2CC(=O)Nc2c(CC)cccc2CC)cc1
Tested at: 1 µM
Measurement: remaining binding
Serine/threonine-protein kinase PAK 4 (PAK4, Homo sapiens, UniProt O96013); cell-free assay, competition with immobilised ligand: 91%
Mast/stem cell growth factor receptor Kit (KIT, Homo sapiens, UniProt P10721, A829P); cell-free assay, competition with immobilised ligand: 63%
ALK tyrosine kinase receptor (ALK, Homo sapiens, UniProt Q9UM73, C1156Y); cell-free assay, competition with immobilised ligand: 98%
MAP kinase-activated protein kinase 5 (MAPKAPK5, Homo sapiens, UniProt Q8IW41); cell-free assay, competition with immobilised ligand: 65%
Serine/threonine-protein kinase PAK 2 (PAK2, Homo sapiens, UniProt Q13177); cell-free assay, competition with immobilised ligand: 94%
Bone morphogenetic protein receptor type-1B (BMPR1B, Homo sapiens, UniProt O00238); cell-free assay, competition with immobilised ligand: 61%
Aurora kinase A (AURKA, Homo sapiens, UniProt O14965); cell-free assay, competition with immobilised ligand: 93%
Interferon-induced, double-stranded RNA-activated protein kinase (EIF2AK2, Homo sapiens, UniProt P19525); cell-free assay, competition with immobilised ligand: 100%
Mitogen-activated protein kinase 8 (MAPK8, Homo sapiens, UniProt P45983); cell-free assay, competition with immobilised ligand: 70%
Atypical kinase COQ8A, mitochondrial (COQ8A, Homo sapiens, UniProt Q8NI60); cell-free assay, competition with immobilised ligand: 100%
Inhibitor of nuclear factor kappa-B kinase subunit epsilon (IKBKE, Homo sapiens, UniProt Q14164); cell-free assay, competition with immobilised ligand: 68%
Megakaryocyte-associated tyrosine-protein kinase (MATK, Homo sapiens, UniProt P42679); cell-free assay, competition with immobilised ligand: 83%
Serine/threonine-protein kinase PRP4 homolog (PRPF4B, Homo sapiens, UniProt Q13523); cell-free assay, competition with immobilised ligand: 82%
Myotonin-protein kinase (DMPK, Homo sapiens, UniProt Q09013); cell-free assay, competition with immobilised ligand: 81%
Serine/threonine-protein kinase 35 (STK35, Homo sapiens, UniProt Q8TDR2); cell-free assay, competition with immobilised ligand: 92%
Mitogen-activated protein kinase kinase kinase 13 (MAP3K13, Homo sapiens, UniProt O43283); cell-free assay, competition with immobilised ligand: 47%
Mitogen-activated protein kinase 15 (MAPK15, Homo sapiens, UniProt Q8TD08); cell-free assay, competition with immobilised ligand: 100%
Serine/threonine-protein kinase SIK1 (SIK1, Homo sapiens, UniProt P57059); competition binding: 100%
Proto-oncogene tyrosine-protein kinase receptor Ret (RET, Homo sapiens, UniProt P07949, M918T); cell-free assay, competition with immobilised ligand: 84%
Tyrosine-protein kinase BTK (BTK, Homo sapiens, UniProt Q06187); cell-free assay, competition with immobilised ligand: 55%
Serine/threonine-protein kinase WNK2 (WNK2, Homo sapiens, UniProt Q9Y3S1); cell-free assay, competition with immobilised ligand: 58%
Serine/threonine-protein kinase mTOR (MTOR, Homo sapiens, UniProt P42345); cell-free assay, competition with immobilised ligand: 77%

Set 4
Compound: CN1CCN(C(=O)c2ccc(NC(=O)Nc3ccc(N(C)c4ccnc(Nc5ccc(CS(C)(=O)=O)cc5)n4)cc3)cc2)CC1
Tested at: 1 µM
Measurement: remaining binding
SRSF protein kinase 1 (SRPK1, Homo sapiens, UniProt Q96SB4); competitive binding panel; baseline: vehicle: 2.3%
STE20/SPS1-related proline-alanine-rich protein kinase (STK39, Homo sapiens, UniProt Q9UEW8); competitive binding panel; baseline: vehicle: 79%
Mitogen-activated protein kinase kinase kinase 5 (MAP3K5, Homo sapiens, UniProt Q99683); competitive binding panel, item: ASK1; baseline: vehicle: 100%
Ephrin type-A receptor 2 (EPHA2, Homo sapiens, UniProt P29317); competitive binding panel; baseline: vehicle: 85%
Hepatocyte growth factor receptor (MET, Homo sapiens, UniProt P08581); competitive binding panel; baseline: vehicle: 8.8%
Serine/threonine-protein kinase SIK1 (SIK1, Homo sapiens, UniProt P57059); competitive binding; SIK: 92%
Receptor tyrosine-protein kinase erbB-2 (ERBB2, Homo sapiens, UniProt P04626); competitive binding panel; baseline: vehicle: 100%
Serine/threonine-protein kinase DCLK1 (DCLK1, Homo sapiens, UniProt O15075); competitive binding panel, item: DCAMKL1; baseline: vehicle: 97%
Serine/threonine-protein kinase TAO1 (TAOK1, Homo sapiens, UniProt Q7L7X3); competitive binding panel; baseline: vehicle: 71%
Tyrosine-protein kinase ABL1 (ABL1, Homo sapiens, UniProt P00519); competitive binding, scanMAX; nonphosphorylated, 1000 nM: 9%
3-phosphoinositide-dependent protein kinase 1 (PDPK1, Homo sapiens, UniProt O15530); competitive binding panel; baseline: vehicle: 68%
Cyclin-dependent kinase-like 5 (CDKL5, Homo sapiens, UniProt O76039); competitive binding panel; baseline: vehicle: 100%
Inhibitor of nuclear factor kappa-B kinase subunit beta (IKBKB, Homo sapiens, UniProt O14920); competitive binding; IKK-beta: 70%
Casein kinase I isoform gamma-2 (CSNK1G2, Homo sapiens, UniProt P78368); competitive binding panel; baseline: vehicle: 100%
Dual specificity tyrosine-phosphorylation-regulated kinase 2 (DYRK2, Homo sapiens, UniProt Q92630); competitive binding panel; baseline: vehicle: 75%
Interleukin-1 receptor-associated kinase 1 (IRAK1, Homo sapiens, UniProt P51617); competitive binding panel; baseline: vehicle: 58%
RAC-alpha serine/threonine-protein kinase (AKT1, Homo sapiens, UniProt P31749); competitive binding panel; baseline: vehicle: 100%

Some of these lines once more (set 3):
ALK tyrosine kinase receptor (ALK, Homo sapiens, UniProt Q9UM73, C1156Y); cell-free assay, competition with immobilised ligand: 98%
MAP kinase-activated protein kinase 5 (MAPKAPK5, Homo sapiens, UniProt Q8IW41); cell-free assay, competition with immobilised ligand: 65%
Serine/threonine-protein kinase PAK 2 (PAK2, Homo sapiens, UniProt Q13177); cell-free assay, competition with immobilised ligand: 94%
Bone morphogenetic protein receptor type-1B (BMPR1B, Homo sapiens, UniProt O00238); cell-free assay, competition with immobilised ligand: 61%
Aurora kinase A (AURKA, Homo sapiens, UniProt O14965); cell-free assay, competition with immobilised ligand: 93%
Interferon-induced, double-stranded RNA-activated protein kinase (EIF2AK2, Homo sapiens, UniProt P19525); cell-free assay, competition with immobilised ligand: 100%
Mitogen-activated protein kinase 8 (MAPK8, Homo sapiens, UniProt P45983); cell-free assay, competition with immobilised ligand: 70%
Atypical kinase COQ8A, mitochondrial (COQ8A, Homo sapiens, UniProt Q8NI60); cell-free assay, competition with immobilised ligand: 100%
Inhibitor of nuclear factor kappa-B kinase subunit epsilon (IKBKE, Homo sapiens, UniProt Q14164); cell-free assay, competition with immobilised ligand: 68%
Megakaryocyte-associated tyrosine-protein kinase (MATK, Homo sapiens, UniProt P42679); cell-free assay, competition with immobilised ligand: 83%
Serine/threonine-protein kinase PRP4 homolog (PRPF4B, Homo sapiens, UniProt Q13523); cell-free assay, competition with immobilised ligand: 82%
Myotonin-protein kinase (DMPK, Homo sapiens, UniProt Q09013); cell-free assay, competition with immobilised ligand: 81%
